Published values collected from several papers.
Lines come from different studies, so protocols differ. “And” joins repeats or separate records; there may be more than shown. ± gives the spread as reported.
TOPBP1: DNA topoisomerase 2-binding protein 1 (TOPBP1, Homo sapiens, UniProt Q92547)
Chain of UniProt P08191 (whole entry, looked up): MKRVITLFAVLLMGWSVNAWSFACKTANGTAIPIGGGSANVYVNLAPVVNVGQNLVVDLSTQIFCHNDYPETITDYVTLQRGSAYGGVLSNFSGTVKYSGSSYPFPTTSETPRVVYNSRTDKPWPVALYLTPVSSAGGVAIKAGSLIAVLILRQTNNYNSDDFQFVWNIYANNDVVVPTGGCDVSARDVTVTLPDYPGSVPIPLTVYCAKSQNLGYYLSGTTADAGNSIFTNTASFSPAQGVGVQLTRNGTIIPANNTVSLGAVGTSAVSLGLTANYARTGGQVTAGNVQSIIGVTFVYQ
Chain of UniProt Q92547 (whole entry, looked up): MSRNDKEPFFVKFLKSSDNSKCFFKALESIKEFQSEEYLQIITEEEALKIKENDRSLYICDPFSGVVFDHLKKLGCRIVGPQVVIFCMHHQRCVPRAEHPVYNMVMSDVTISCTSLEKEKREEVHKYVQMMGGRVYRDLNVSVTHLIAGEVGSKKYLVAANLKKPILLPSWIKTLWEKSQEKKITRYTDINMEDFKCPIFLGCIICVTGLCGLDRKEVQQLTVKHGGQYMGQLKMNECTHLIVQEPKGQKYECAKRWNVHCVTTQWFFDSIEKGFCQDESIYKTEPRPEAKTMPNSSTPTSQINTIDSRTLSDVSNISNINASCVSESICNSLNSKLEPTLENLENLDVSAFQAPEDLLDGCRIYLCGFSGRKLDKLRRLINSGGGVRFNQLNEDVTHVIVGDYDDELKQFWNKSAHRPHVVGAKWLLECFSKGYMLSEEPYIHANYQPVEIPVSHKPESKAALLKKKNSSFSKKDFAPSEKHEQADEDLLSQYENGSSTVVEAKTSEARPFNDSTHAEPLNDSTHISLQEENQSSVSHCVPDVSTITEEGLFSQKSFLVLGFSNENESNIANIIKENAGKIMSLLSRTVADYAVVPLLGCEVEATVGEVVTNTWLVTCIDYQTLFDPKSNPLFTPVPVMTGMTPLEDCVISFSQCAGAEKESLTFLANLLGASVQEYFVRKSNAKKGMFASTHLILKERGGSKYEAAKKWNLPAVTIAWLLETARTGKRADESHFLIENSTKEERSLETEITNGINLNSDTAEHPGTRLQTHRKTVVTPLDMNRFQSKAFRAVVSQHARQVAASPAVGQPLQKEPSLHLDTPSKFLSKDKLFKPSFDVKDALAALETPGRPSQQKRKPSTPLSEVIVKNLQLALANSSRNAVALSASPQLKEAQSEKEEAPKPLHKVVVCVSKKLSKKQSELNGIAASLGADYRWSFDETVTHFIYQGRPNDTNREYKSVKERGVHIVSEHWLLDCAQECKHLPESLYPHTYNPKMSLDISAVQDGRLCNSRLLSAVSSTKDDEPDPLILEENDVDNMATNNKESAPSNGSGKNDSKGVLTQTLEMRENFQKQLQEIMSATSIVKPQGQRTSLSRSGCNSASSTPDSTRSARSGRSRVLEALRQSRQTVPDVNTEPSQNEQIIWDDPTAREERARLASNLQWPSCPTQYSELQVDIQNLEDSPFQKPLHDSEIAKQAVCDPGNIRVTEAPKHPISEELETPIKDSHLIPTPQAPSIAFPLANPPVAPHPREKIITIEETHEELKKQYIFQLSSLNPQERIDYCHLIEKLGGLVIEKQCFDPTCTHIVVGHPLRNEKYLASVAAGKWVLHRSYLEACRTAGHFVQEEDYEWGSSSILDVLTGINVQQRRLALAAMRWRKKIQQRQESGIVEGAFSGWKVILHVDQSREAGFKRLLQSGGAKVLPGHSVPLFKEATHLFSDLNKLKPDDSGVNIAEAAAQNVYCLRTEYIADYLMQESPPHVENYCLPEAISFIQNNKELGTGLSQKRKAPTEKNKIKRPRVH
Chain of UniProt P02754 (whole entry, looked up): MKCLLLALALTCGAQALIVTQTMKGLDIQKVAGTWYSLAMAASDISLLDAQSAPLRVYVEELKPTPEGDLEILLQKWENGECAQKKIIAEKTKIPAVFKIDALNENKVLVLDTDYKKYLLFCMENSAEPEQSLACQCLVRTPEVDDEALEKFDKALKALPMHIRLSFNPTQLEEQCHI
Chain of UniProt P02466 (whole entry, looked up): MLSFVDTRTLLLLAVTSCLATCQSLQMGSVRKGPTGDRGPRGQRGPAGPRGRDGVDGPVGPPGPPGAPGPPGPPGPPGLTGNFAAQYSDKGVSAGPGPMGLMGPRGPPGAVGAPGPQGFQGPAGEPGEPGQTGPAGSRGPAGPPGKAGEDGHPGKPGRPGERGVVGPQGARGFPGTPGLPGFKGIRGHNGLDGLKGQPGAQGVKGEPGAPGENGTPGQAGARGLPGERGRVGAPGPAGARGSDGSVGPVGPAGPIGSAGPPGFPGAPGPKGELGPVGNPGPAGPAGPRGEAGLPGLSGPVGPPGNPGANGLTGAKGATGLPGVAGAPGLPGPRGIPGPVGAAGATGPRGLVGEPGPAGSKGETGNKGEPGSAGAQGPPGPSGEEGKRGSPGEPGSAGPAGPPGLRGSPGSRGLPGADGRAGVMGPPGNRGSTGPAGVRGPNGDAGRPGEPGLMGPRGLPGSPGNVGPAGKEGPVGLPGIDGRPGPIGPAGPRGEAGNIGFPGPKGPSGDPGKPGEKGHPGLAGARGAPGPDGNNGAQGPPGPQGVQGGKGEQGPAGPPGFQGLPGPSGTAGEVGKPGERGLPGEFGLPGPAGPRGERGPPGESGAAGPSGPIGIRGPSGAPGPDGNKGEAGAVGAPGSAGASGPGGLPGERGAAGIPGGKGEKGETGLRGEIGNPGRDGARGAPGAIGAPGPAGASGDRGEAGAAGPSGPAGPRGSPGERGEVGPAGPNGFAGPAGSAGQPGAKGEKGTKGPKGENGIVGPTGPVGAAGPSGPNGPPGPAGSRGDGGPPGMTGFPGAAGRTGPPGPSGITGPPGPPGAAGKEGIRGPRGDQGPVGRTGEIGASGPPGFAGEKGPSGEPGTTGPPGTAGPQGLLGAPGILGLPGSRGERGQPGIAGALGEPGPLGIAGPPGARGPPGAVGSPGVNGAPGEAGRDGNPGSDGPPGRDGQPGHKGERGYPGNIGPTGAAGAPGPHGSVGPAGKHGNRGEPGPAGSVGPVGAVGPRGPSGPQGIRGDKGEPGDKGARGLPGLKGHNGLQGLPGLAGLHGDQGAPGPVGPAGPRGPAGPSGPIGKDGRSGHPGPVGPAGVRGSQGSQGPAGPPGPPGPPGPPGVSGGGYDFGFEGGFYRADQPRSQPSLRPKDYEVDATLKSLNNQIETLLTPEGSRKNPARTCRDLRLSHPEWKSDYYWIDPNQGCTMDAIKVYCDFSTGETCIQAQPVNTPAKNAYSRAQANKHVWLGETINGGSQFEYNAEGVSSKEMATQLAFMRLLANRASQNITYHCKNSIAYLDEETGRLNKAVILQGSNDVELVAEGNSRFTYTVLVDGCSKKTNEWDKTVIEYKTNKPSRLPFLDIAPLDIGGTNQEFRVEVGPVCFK
Chain of UniProt Q9HB29 (whole entry, looked up): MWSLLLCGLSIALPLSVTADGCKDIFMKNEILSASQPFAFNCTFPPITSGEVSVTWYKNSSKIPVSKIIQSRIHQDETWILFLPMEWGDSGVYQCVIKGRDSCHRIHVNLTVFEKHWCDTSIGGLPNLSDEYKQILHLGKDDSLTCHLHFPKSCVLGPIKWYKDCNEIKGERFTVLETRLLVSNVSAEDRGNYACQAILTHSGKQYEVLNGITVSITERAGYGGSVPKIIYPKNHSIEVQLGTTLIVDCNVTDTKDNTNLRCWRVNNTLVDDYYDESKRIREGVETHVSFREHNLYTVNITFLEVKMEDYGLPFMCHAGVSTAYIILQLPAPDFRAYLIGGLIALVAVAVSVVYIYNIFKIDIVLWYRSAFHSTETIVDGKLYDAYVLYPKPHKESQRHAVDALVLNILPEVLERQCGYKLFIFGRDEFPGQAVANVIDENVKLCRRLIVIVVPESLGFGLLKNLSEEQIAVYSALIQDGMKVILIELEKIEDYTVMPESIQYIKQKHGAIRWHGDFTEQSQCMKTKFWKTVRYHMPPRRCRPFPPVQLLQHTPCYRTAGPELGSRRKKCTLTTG
Chain of UniProt O14920 (whole entry, looked up): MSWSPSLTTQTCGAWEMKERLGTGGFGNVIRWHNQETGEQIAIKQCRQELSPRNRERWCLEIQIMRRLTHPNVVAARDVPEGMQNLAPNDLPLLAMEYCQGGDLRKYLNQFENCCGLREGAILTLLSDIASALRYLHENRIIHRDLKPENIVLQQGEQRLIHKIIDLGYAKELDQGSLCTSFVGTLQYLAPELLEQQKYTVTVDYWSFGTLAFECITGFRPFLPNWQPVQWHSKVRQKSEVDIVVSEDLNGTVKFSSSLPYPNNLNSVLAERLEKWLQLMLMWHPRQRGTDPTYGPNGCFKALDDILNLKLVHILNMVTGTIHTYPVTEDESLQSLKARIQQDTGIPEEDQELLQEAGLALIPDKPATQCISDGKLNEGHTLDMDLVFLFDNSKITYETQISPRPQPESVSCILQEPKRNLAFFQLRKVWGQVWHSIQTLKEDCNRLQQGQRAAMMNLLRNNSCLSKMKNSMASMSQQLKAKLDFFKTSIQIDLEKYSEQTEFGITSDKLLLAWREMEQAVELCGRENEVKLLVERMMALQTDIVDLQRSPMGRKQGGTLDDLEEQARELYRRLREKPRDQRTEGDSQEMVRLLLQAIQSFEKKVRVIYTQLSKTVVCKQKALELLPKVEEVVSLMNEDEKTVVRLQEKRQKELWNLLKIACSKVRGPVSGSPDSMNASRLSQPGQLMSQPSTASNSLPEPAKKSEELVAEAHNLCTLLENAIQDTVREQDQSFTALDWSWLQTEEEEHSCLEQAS
Chain of UniProt P07451 (whole entry, looked up): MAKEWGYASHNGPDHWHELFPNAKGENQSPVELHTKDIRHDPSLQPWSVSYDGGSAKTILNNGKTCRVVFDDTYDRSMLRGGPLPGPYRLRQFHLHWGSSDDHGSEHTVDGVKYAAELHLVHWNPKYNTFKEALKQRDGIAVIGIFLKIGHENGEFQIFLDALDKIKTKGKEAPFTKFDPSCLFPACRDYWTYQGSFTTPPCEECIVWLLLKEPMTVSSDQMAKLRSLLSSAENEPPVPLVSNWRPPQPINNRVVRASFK

The Kd of C[n+]1c(/C=C/c2ccc(N(c3ccccc3)c3ccccc3)cc2)cc(/C=C2\Sc3ccccc3N2CCCN2CCCC2)c2ccccc21 is reported as 4690 nM (Pu22 DNA; isothermal titration calorimetry; pH 7.4, 25 °C, 2% DMSO).
NS(=O)(=O)c1cc(C(=O)NCCCC(=O)O)c(NC2CCCCC2)cc1Cl gave a Kd of 220 nM (CA14 (Homo sapiens, UniProt Q9ULX7); pH 7).
With O=C(O)Cc1ccccc1Nc1c(Cl)cccc1Cl the Kd was 200000 nM (TOPBP1; binding, NMR).
For Cc1c[nH]c2nccc(-c3ccc(C(=O)N[C@@H]4c5c(F)cc(C(F)F)cc5C[C@@H]4O)cn3)c12, the Kd was 400 nM (IKBKB (Homo sapiens, UniProt O14920); binding, competition with immobilised ligand).
With CCCc1cc2cc(-n3nc(C4CC4(F)F)c4c3CC(C)(C)CC4=O)cc(N3CCC(O)CC3)c2c(=O)[nH]1 (racemic) the Kd was 1810 nM (HSP90AB1 (Homo sapiens, UniProt P08238); fluorescence polarization; 24 h, 4 °C, with: FITC-geldanamycin tracer).
With CSCC[C@@H]1NC(=O)[C@H](C(C)C)NC(=O)[C@H](CCCNC(=N)N)NC(=O)[C@@H]2CCCN2C(=O)CNC(=O)[C@@H](NC(=O)CNC(=O)[C@H](CO)NC(=O)CNC(=O)[C@H](CO)NC(=O)CCCC[C@@H]2SC[C@@H]3NC(=O)N[C@@H]32)CSSC[C@@H](C(N)=O)NC(=O)[C@@H]2CCCN2C(=O)CNC(=O)[C@H](CCC(=O)O)NC(=O)[C@H](CC(=O)O)NC(=O)[C@H](CC(=O)O)NC(=O)CNC(=O)[C@H](CC(C)C)NC(=O)[C@H](Cc2c[nH]cn2)NC(=O)[C@H](CC(C)C)NC(=O)CNC(=O)[C@H](Cc2c[nH]cn2)NC1=O the Kd was 900 ± 400 nM (Col1a1/Col1a2 (Rattus norvegicus, UniProt P02454+P02466); binding, bio-layer interferometry; biotinylated peptide on streptavidin biosensor; with: collagen 0 to 8 µM).
For CCCC[C@@H]1NC(=O)[C@H](Cc2ccc(O)cc2)NC(=O)[C@@H]2CCCN2C(=O)[C@H](CC(=O)O)NC(=O)[C@H](C)NC(=O)[C@H](Cc2ccccc2)NC(=O)[C@@H]2CSCCC(=O)N3CN(CN(C3)C(=O)CCSC[C@@H](C(=O)N[C@@H](C)C(N)=O)NC1=O)C(=O)CCSC[C@H](NC(C)=O)C(=O)N[C@@H](CC(C)(C)C)C(=O)N1CCC[C@H]1C(=O)N[C@@H](CCC(=O)O)C(=O)N[C@H](CCCCNC(=O)CCc1cn(CCOCCOCCOCCN(CCOCCOCCOCCC(=O)N[C@H]3CSCCC(=O)N4CN5CN(C4)C(=O)CCSC[C@H](NC(=O)[C@@H](CC(=O)O)NC(=O)[C@H](Cc4cccc6ccccc46)NC(=O)[C@@H]4CCCN4C3=O)C(=O)N[C@@H](CCSC)C(=O)N[C@@H](CCCCNC(=N)N)C(=O)N[C@@H](CC(=O)O)C(=O)N[C@@H](Cc3c[nH]c4ccccc34)C(=O)N[C@@H](CO)C(=O)N[C@@H]([C@@H](C)O)C(=O)N3CCC[C@H]3C(=O)N3C[C@H](O)C[C@H]3C(=O)N[C@@H](Cc3c[nH]c4ccccc34)C(=O)N[C@H](C(N)=O)CSCCC5=O)CCOCCOCCOCCn3cc(CCC(=O)NCCCC[C@H]4NC(=O)[C@H](CCC(=O)O)NC(=O)[C@@H]5CCCN5C(=O)[C@H](CC(C)(C)C)NC(=O)[C@@H](NC(C)=O)CSCCC(=O)N5CN6CN(C5)C(=O)CCSC[C@H](NC(=O)[C@H](Cc5ccc(O)cc5)NC(=O)[C@@H]5CCCN5C4=O)C(=O)N[C@@H](Cc4ccccc4)C(=O)N[C@@H](C)C(=O)N[C@@H](CC(=O)O)C(=O)N4CCC[C@H]4C(=O)N[C@@H](Cc4ccc(O)cc4)C(=O)N[C@@H](CCCC)C(=O)N[C@H](C(=O)N[C@@H](C)C(N)=O)CSCCC6=O)nn3)nn1)C(=O)N1CCC[C@H]1C(=O)N[C@@H](Cc1ccc(O)cc1)C(=O)N2, the Kd was greater than 200 nM (Nectin-3 (NECTIN3, Homo sapiens, UniProt Q9NQS3); SPR).
With CC(C)C[C@@H]1NC(=O)[C@@H]2CSCCC(=O)N3CN(CN(C3)C(=O)CCSC[C@H](NC(=O)[C@H](CC(=O)O)NC(=O)[C@H](CCCCNC(=N)N)NC(=O)[C@H](C)NC(=O)CN(C)C(=O)CN(C)C(=O)CN(C)C(=O)CN(C)C(=O)CN(C)C(=O)CN(C)C(=O)CN(C)C(=O)CN(C)C(=O)CN(C)C(=O)CN(C)C(=O)CCN)C(=O)N3C[C@H](O)C[C@H]3C(=O)N[C@@H](CC(C)C)C(=O)N[C@@H](C(C)C)C(=O)N[C@@H](CC(N)=O)C(=O)N3CCC[C@H]3C(=O)N[C@@H](CC(C)C)C(=O)N2)C(=O)CCSC[C@@H](C(N)=O)NC(=O)[C@H](CCCCNC(=N)N)NC(=O)[C@H](Cc2c[nH]c3ccccc23)NC(=O)[C@@H](CC(=O)O)NC(=O)[C@@H]2CCCN2C(=O)[C@H](Cc2c[nH]cn2)NC1=O the Kd was 1.7 nM (EPHA2 (Homo sapiens, UniProt P29317); binding, SPR).
For N#Cc1cnc2sc(C(=O)O)cc2c1N1CCc2[nH]nc(C(=O)N[C@@H](CC(=O)NCCOCCN3CCOCC3)c3cccc(Br)c3)c2C1, the Kd was 82 nM (Interleukin-1 receptor-like 2, D1-D3 domains (IL1RL2, Homo sapiens, UniProt Q9HB29); binding, surface plasmon resonance; IL-36R D1-D3 ectodomain).
The Kd of C=CC(=O)N1CC2(CCN(c3nc(OC4CCN(CCCOC)CC4)nc4c(OCC(F)(F)F)c(-c5c(C)ccc6[nH]ncc56)c(C5CC5)cc34)CC2)C1 is reported as 822 ± 120 nM (GTPase KRas, GDP-bound (KRAS, Homo sapiens, UniProt P01116, Q61R); SPR).
Cn1ncc2cc(-c3cncc(Cl)c3N3CCC4(CCNC4=O)CC3)ccc21 gave a Kd of 5550 nM (CDC42BPA (Homo sapiens, UniProt Q5VT25); cell-free assay; lysate).
With CCc1nc2cc3ccccc3cc2cc1C(=O)N[C@@H](CCCCN)C(=O)N[C@@H](C/C=C/C[C@H](NC(=O)[C@H](CCCCN)NC(=O)c1cc2cc3ccccc3cc2nc1CC)C(=O)N1CCC[C@H]1C(=O)NCCCN)C(=O)N1CCC[C@H]1C(=O)NCCCN the Kd was 118 nM ((CUG)10 RNA; SPR).
CC(C)(C)n1cc(CN(Cc2cn(CCOCCOCCOCCOCCOCCO)nn2)Cc2cn(C(C)(C)C)nn2)nn1 gave a Kd of 0.259 ± 0.0494 nM (copper(I); bicinchoninic acid competition).
For NCCCC[C@H](NC(=O)[C@H](C/C=C/C[C@H](NC(=O)[C@@H]1CCCN1)C(=O)N[C@@H](CCCCN)C(=O)NCCCN)NC(=O)[C@@H]1CCCN1)C(=O)NCCCN, the Kd was 421 nM ((CUG)10 RNA; SPR).
CCCCCCCO[C@H]1O[C@H](CO)[C@@H](O)[C@H](O)[C@@H]1O has a Kd of 38.6 nM and 34.4 nM (Type 1 fimbrin D-mannose specific adhesin, lectin domain (fimH, Escherichia coli K-12, UniProt P08191); binding, isothermal titration calorimetry; 37 °C, individual titrations).
For COc1ccc(-c2coc3cc(O)cc(O)c3c2=O)cc1, the Kd was 17900 nM (HSD3B1 (Homo sapiens, UniProt P14060); binding, SPR).
For CCc1nc2cc3ccccc3cc2cc1C(=O)N1CCC[C@H]1C(=O)N[C@@H](CCC/C=C\CCC[C@H](NC(=O)[C@@H]1CCCN1C(=O)c1cc2cc3ccccc3cc2nc1CC)C(=O)N[C@@H](CCCCN)C(=O)NCCCN)C(=O)N[C@@H](CCCCN)C(=O)NCCCN, the Kd was 78.7 nM ((CUG)10 RNA; SPR).
For OC(Cc1cc(-c2ccc(C(O)C(F)(F)F)s2)sc1-c1ccc(-c2sc(-c3ccc(C(O)C(F)(F)F)s3)cc2CC(O)C(F)(F)F)s1)C(F)(F)F (stereo not drawn), the Kd was 1310 nM (Microtubule-associated protein tau, 0N4R isoform, aggregated (MAPT, Homo sapiens, UniProt P10636); binding, fluorescence; 5% sucrose tau fraction).
CC(C)=CCC/C(C)=C/C=C/C(C)=C/C=C/C(C)=C/C=C/C=C(C)/C=C/C=C(C)/C=C/C=C(\C)CCC=C(C)C gave a Kd of 47200 nM (Beta-lactoglobulin (LGB, Bos taurus, UniProt P02754); binding, ITC).
With C[N+]1(C)CCCC1 the Kd was 227000 nM (Chrnd/Chrna1/Chrne (Mus musculus, UniProt P02716+P04756+P20782, G173K/S470W); single-channel kinetics; K chain side site).
With O=C(O)CC12CC3CC(CC(C3)C1)C2 the Kd was 120000 nM (TOPBP1; binding, NMR).
O=C(CCc1ccc2n1[B-](F)(F)[N+]1=C(c3ccc[nH]3)C=CC1=C2)NCCCn1cc(COC[C@H]2CN(Cc3ccccn3)C(=O)[C@@H]3CCC[C@H]2N3S(=O)(=O)c2cc(Cl)cc(Cl)c2)nn1 has a Kd of 3 nM (FKBP1A (Homo sapiens, UniProt P62942); binding, FP).
With CCc1nc2cc3ccccc3cc2cc1C(=O)N1CCC[C@H]1C(=O)N[C@@H](C/C=C\C[C@H](NC(=O)[C@@H]1CCCN1C(=O)c1cc2cc3ccccc3cc2nc1CC)C(=O)N[C@@H](CCCCN)C(=O)NCCCN)C(=O)N[C@@H](CCCCN)C(=O)NCCCN the Kd was 40 nM ((CUG)10 RNA; SPR).
With COC(=O)CCCNC(=O)c1cc(S(N)(=O)=O)c(Cl)cc1NC1CCCCC1 the Kd was greater than 200000 nM (CA3 (Homo sapiens, UniProt P07451); pH 7).
